Assay results pooled from the literature.
Compare with care: the assays were run in different laboratories. ± marks the error that the study gave.

SMILES = CNC(=O)c1c(C)oc2cc(Oc3ccnc4cc(OCCN5CCOCC5)ccc34)ccc12; test system = patients with advanced solid tumours; measurement = maximum tolerated dose; result = 8 mg
SMILES = O=C(O)CCCOc1ccc(F)cc1-c1cc(-c2ccccc2C(F)(F)F)n(-c2ccccc2)n1; test = refers to: AST; test system = Crl:CD(SD) rats, female, serum; setting = iv, 25 µg/kg, 1 day; measurement = serum enzyme activity; result = 93.6 ± 19.6 U/L
SMILES = N=C(N)NCCNC(=O)C1(Nc2ccccc2)CCN(Cc2ccccc2)CC1; test system = female Sprague-Dawley rats; setting = oral, 50 mg/kg; measurement = elimination rate constant; result = 0.00108 ± 0.000389 s⁻¹
SMILES = C[C@]1(CO)Cc2ncn(-c3ccc(C#N)c(Cl)c3)c2C(=O)O1; test system = human, Chinese; setting = 3 mg single dose; measurement = subjects with any TEAE; result = 16.7%
SMILES = C[C@@H](NC(=O)N1C(=O)[C@H](Cc2ccnc(N)c2)[C@H]1C(=O)O)C1CCCCC1; test system = healthy Chinese adult volunteers; setting = continuous intravenous infusion, dose not given, 5.0 days, all doses pooled; measurement = subjects with albuminuria; result = 15%
SMILES = Oc1c(Cl)cc2c(c1Cl)Oc1cc(Cl)c(Cl)cc1O2; test system = whole cow milk; setting = 100 nM nominal; measurement = dose fraction in skim milk; result = 43.3%
SMILES = CO[C@H]1C[C@@H]2CC[C@@H](C)[C@@](O)(O2)C(=O)C(=O)N2CCCC[C@H]2C(=O)O[C@H]([C@H](C)C[C@@H]2CC[C@@H](OC(=O)NCCOCCOCCOCCOCCOCCOCCOCCOCCC(=O)N3CCc4cc(Cn5nc(-c6ccc7oc(N)nc7c6)c6c(N)ncnc65)ccc4C3)[C@H](OC)C2)C[C@@H](O)[C@H](C)/C=C(\C)[C@@H](O)[C@@H](OC)C(=O)[C@H](C)C[C@H](C)/C=C/C=C/C=C/1C; test system = patients with advanced solid tumours; setting = intravenous, 10 mg weekly, any grade; measurement = dysgeusia incidence; result = 25%
SMILES = Clc1ccc(-c2ccccc2)cc1; test system = Sprague-Dawley rats, female, serum; setting = inhalation, 23 µg/rat, 4 h after exposure; measurement = creatinine; result = 0.4 ± 0.1 mg/dL
SMILES = COc1cc2c(Oc3ccc4[nH]c(C)cc4c3F)ccnc2cc1OCC1(N)CC1; test system = paediatric recurrent refractory sarcoma; setting = 10 mg; measurement = grade 3 Myalgia; result = 0%
SMILES = CCc1ccc(CC/C=C/c2ccc3c(c2)C(=O)CC3)cc1; test system = Sprague-Dawley rat, female; setting = oral, 120 mg/kg/day, 14 days; measurement = APTT; result = 15.2 s
SMILES = Cn1ncc(-c2nc(N[C@H]3CC[C@H](N)CC3)ncc2Cl)c1CC1CC1; test system = human patients, plasma; setting = oral, 42 mg, day 5; measurement = AUC; result = 4770 ng·h/mL
SMILES = C1=Cc2nc1cc1ccc([n-]1)c(C1CC1)c1nc(cc3ccc([n-]3)c2C2CC2)C=C1.CC(=O)[O-].[Mn+3]; test = LC-MS/MS; test system = Sprague-Dawley rat, plasma; setting = oral gavage, dose not given, 360 min, individual rat Rat2; measurement = plasma concentration; result = 187 ng/mL
SMILES = CC[C@H](C)CCCCC(=O)N[C@@H](CCN)C(=O)N[C@H](C(=O)N[C@@H](CCN)C(=O)N[C@H]1CCNC(=O)[C@H]([C@@H](C)O)NC(=O)[C@H](CCN)NC(=O)[C@H](CCN)NC(=O)[C@H](CC(C)C)NC(=O)[C@@H](Cc2ccccc2)NC(=O)[C@H](CCN)NC1=O)[C@@H](C)O; test system = human, critically ill, no AKI, plasma; setting = intravenous, dose not given, mean; measurement = dose-normalised fAUC(0-24) steady state; result = 0.58 mg·h/L per mg
